Measured values pooled from the literature.
A part holds a random share of what one study measured. Changes are numbered by the printed parent chain.

Sample 1 — technique: RNA Bind-n-Seq; molecule type: RNA; medium: in vitro; tested at: 200 nM; notes: whole 134-nt RNA, ends assumed; with: 150 mM KCl; relative to: input library; direction: higher = stronger binding
Target: Fragile X messenger ribonucleoprotein 1, C-terminal low-complexity region (Fmr1, Mus musculus, UniProt P35922)
Constant ends, left off below: GGGAGUUCUACAGUCCGACGAUC … UGGAAUUCUCGGGUGUCAAGG
| Sequence | log2 enrichment |
| --- | --- |
| AGAAAGCCCAGGAGGAACCACCUGCCAAGCUGCUGGAUGACCUUUUCCGAAAGACCAAGGCAGCUCCCUGCAUCUAUUGGCUCCCACUGA | -0.244 |
| ACCAUGCAGGUAAACAUCUUUGGGAAGUGGGGCAAGGGGGGGAUAGGGAGGGGGGUAACACUUUGGGAACAGGUGGUCCCAGGUCGUUUC | 0.996 |
| UGUGUCUUGCUGAAUCAGGGCUCUCUUAUCCCUGCCAUCGACUUACAGUGGGAAGAAGAUCUUCACCUGCACAGACCCGGGAACAGUCGG | -0.311 |
| UACUAUCAAACAAUCGGAAACCACGCGUCCUACUACAAAGAUGCUCUGCGGUUUUUGGGCUGUGUUGACAUCAAGGAUCUACCAGGUAAC | -1.39 |
| UACUGCUCCUCAGCAGGAAGCGGAUGCUGAGGUGAACACAGAAACACUAAAUAAGUCCUCCCAGGGGAGCUCCUCGAGCACACAAUCAGC | 0.46 |
| ACCAUGCAGGUGGGCAUCUUUGGGAAGUGGGGCAAGGGGAAAAUAGGGAGGGGGGUAACACUUUGGGAACAGGUGGUCCCAGGUCGUUUC | 0.75 |
| UGGGAGGUGGAUUUUGUUUAUUUUUUUAGCUCAUUUCCAGGGGUGGGAAUUUUUGUUUAAUAUGUGUCAUGAAUAAAGUUGUUUUUGAAA | 0.348 |
| GCAGGAAGUAAAAACAAAUGGAAAUGCUUCGGAUAGUGGCAGGGGUGGGGGUUGCUAAGGAAAGGGUGGGAUGGGUGUGGGUAAAGAGUU | 0.207 |
| CCUGUGCUACACAUCGUAUGUACCGAAUCGGGGCCCCCCGGGCCCCCCGGCCCCCCGGGGAAAGUAUUAUGUUACGCCGUUCGGAUCUGC | -0.728 |
| UCAAGUCCUGUGCUACACAUCGUAUGUACCGAAUCGGUGGUUUUUGGUUUUUGGAAAGUAUUAUGUUACGCCGUUCGGAUCUGCACUUCC | -0.435 |
| GUCCUGUGCUACACAUCGUAUGUACCGAAUCGGGGCCCCCGGGCCCCCGGGCCCCCGGAAAGUAUUAUGUUACGCCGUUCGGAUCUGCAC | -0.705 |
| UCCUGUGCUACACAUCGUAUGUACCGAAUCGGGUUUUUUUGGGUUUGGGAAAAAAAGGGAAAGUAUUAUGUUACGCCGUUCGGAUCUGCA | -0.325 |
| AGUCCUGUGCUACACAUCGUAUGUACCGAAUCGGUUUUUGGUUUUUGGUUUUUUUGGAAAGUAUUAUGUUACGCCGUUCGGAUCUGCACU | -1.03 |

Sample 2 — target: UBE2I UBC core domain (UniProt P63279); technique: yeast two-hybrid; medium: yeast; notes: mostly zero background; relative to: not given; direction: higher = stronger interaction
B1: RNF170 RING domain (UniProt Q96K19); chain TRQQFYTDMYCPICLHQASFPVETNCGHLFCGACIIAYWRYGSWLGAISCPICRQTVTLLLTVF
| Molecule | lacZ reporter activity |
| --- | --- |
| DAIPSLSECQCGICMEILVEPVTLPCNHTLCKPCFQSTVEKASLCCPFCRRRVSSWTRYH (RNF168 RING domain (UniProt Q8IYW5)) | 0 |
| QLQDIKEQTMCPVCLDRLKNMIFLCGHGTCQLCGDRMSECPICRKAIERRILLY (MIB1 RING domain (UniProt Q86YT6)) | 0 |
| PEELQAMDNVCIICREEMVTGAKRLPCNHIFHTSCLRSWFQRQQTCPTCRMDVLRASLPA (SYVN1 RING domain (UniProt Q86TM6)) | 0 |
| B1 (RNF170 RING domain) | 0 |
| QLRRLQEERTCKVCMDKEVSIVFIPCGHLVVCKDCAPSLRKCPICRSTIKGTVRTF (BIRC3 RING domain (UniProt Q13489)) | 0 |
| FASPPDSNFVCSVCHGVLKRPARLPCSHIFCKKCILRWLARQKTCPCCRKEVKRKKVVH (RNF151 RING domain (UniProt Q2KHN1)) | 0 |

Sample 3 — technique: protein binding microarray; molecule type: double-stranded DNA, one strand shown; medium: in vitro; tested at: not given; relative to: not given; direction: higher = stronger binding
Target: Histone acetyltransferase KAT6A, both winged helices, GST fusion (KAT6A, Homo sapiens, UniProt Q92794, residues 1-181)
Notes: 8-mer, flanks averaged, mean of 2 arrays, mostly near background
Residues (chain): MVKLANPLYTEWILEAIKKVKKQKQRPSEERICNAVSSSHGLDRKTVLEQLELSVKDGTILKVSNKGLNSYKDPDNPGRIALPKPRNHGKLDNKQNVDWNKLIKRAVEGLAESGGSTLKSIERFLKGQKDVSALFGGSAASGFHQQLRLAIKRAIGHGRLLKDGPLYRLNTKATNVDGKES
| Sequence | E-score |
| --- | --- |
| AACTAACC | -0.0947 |
| GAGCGGGA | 0.259 |
| CTGCCCAA | -0.218 |
| AGCTTCAC | -0.124 |
| ATTTCACG | 0.138 |
| GGCATTCA | 0.0381 |
| TGGATCAA | -0.144 |
| AATGTGCA | -0.0866 |
| AACGTTAA | 0.114 |
| AGTATTGG | -0.192 |
| GCATGTCC | 0.0441 |
| CGCACTTA | 0.132 |
| CCAGCGTA | 0.0963 |
| AAGCGAAG | 0.114 |

Sample 4 — technique: competition protein-binding microarray; molecule type: double-stranded DNA, one strand shown; medium: in vitro; tested at: 2 µM; with: Pho4 competitor, 0.05 µM; direction: higher = stronger binding; constant ends, left off below: … GTCTTGATTCGCTTGACGCTGCTG
Target: Centromere-binding protein 1, full length, His-tagged (CBF1, Saccharomyces cerevisiae, UniProt P17106, residues 1-351)
Sequence of UniProt P17106 (whole entry, looked up): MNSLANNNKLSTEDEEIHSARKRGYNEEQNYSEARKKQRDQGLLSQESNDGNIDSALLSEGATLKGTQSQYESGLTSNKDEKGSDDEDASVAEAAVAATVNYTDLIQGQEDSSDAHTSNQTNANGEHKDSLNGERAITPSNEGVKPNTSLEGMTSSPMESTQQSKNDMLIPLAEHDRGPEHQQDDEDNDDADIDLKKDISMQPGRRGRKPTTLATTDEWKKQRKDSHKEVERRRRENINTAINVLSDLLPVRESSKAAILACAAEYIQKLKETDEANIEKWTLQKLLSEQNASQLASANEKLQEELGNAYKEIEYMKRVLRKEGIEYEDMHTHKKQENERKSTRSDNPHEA
Notes: whole 60-bp probe, lowest competitor level
| Sequence | fluorescence intensity [a.u.] |
| --- | --- |
| AGGCCTATCTTCTCACGCCTGAGGAACCTGCCAAGA | 62.4 |
| AACCTAGAGCTTCGTCACGGGGGCCTTGTCCGACTT | 263 |
| CGTCTCCCGCAAAGCCACGCGCCAGCTGACTGGCTC | 69.7 |
| TCTCTCGCGTTGCTTCTTGTGACGGCAGTTGTATAT | 96.5 |
| TGTTTGAGTGGCCAAGACGTGTTGAACTTCAGAAGT | 78.6 |
| AAATTACTAAGTTGGGGAGTGGGTGACGCCGTATGA | 57.4 |
| CATAATAACAGTTGCGTTGTGACGCTATTGTTAACA | 75 |
| GACACATCTCTGAGCAGCATGACAGGGTTGTCCCAA | 83.2 |
| GAGATACAACACCATCACGTTTAAAAGCCTTGTTGG | 218 |
| CGTCCTAGTGATTGTCACATTACTTCCATGAGGAAG | 123 |
| GTCTTGTCTCATTGGCTGGTGGGTGTCCCCACTTCA | 79.7 |
| CGGGGTTAAGTTTGAATGGTGGGTGGCTTGCAGCAG | 66.9 |
| ACTAAAAGGCGCTGGCACGATTTTCTTTGATGCTAA | 65.1 |
| CCGTCTTAGCACCCGCACACGCAGACGCAGCGCTCA | 65.8 |

Sample 5 — technique: RNA Bind-n-Seq; molecule type: RNA; medium: in vitro; tested at: not given; relative to: input RNA pool; direction: higher = stronger binding
Target: RING finger protein unkempt homolog, zinc fingers 1-6, GST-SBP tag (UNK, Homo sapiens, UniProt Q9C0B0, residues 30-357)
Notes: RNA with constant flanks, human-mouse chimeric sites, ends assumed
Constant ends, left off below: GGGAGUUCUACAGUCCGACGAUC … CAACAGAGGAUUGAGCAUCA
Construct (chain): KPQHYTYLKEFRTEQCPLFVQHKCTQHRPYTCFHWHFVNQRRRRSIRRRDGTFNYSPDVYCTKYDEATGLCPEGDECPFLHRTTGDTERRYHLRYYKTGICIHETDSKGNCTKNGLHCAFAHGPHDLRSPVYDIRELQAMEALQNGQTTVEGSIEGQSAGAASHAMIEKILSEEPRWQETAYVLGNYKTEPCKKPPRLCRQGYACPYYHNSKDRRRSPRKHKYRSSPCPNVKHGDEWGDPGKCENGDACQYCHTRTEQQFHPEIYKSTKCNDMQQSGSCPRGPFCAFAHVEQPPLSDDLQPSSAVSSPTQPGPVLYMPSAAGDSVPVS
| Sequence | bound/input enrichment |
| --- | --- |
| UAAGUCCUGUGCCAGCACUUCGCUCAUAAAGUUUUAAAUUCUGGACCAAUAGUGUUUAUCUUUAGAAUUUUGUAUUCAAUACUUUGCCUAGUAUGUAACUCACUCUUACUGAUAAUAAAA | 6.68 ratio |
| CCCUCCCGGGCCACCCAACCCCUCCCGGCUCCCCGCCAGAGCAAGGUUUUCUUCUUAUUUCAUAGCAAAUAAGAAAAAUGUUCUACGCACAUUUUGUCCUCAGUAAACGAGGGCCUCUGG | 0.543 ratio |
| AACAGAUUGUCUUUAAGCAUUCCAAGCAAUGCUUGGGGGGUGAUCAUUGUUGCCCAUGUGCCUUCUGUAAUAGAUGGAAUGCUGUUCCAUGUUACAUCUUUCCUUCACUCCAGAAUUGUU | 0.0804 ratio |
| AACAGAUUGUCUUUAAGCAUUCCAAGCGAGAAUGCUGGGGUGAUCAUUGUUGCCCAUAUAUAGUAAUACUGAGCUUUUAAUUAAUUGCAUGUUACAUCUUUCCUUCACUCCAGAAUUGUU | 2.34 ratio |
| AAAGCCCAAGUAUUUUGAAAAAAUUCAAACAGAUUUGACAAGGGUAGCCAGCUUGGAGUCUAGCAACUUGCCAAUGUGUUUACCAAUUUUGGGGGCUGUUUUUCUUUUCUUCUUUCAAAU | 0.334 ratio |
| ACAGUUAUAUUGUUGAGGUUUGUAUUUUUGUAUGUUUGUAGUGUCUGCUUGCCUGUGACUUCUGGUAAAAUAAAAUAAGCCUUUGAAAAUAUUUUAGCAUGGUAUUUAACAUUUUCUAAA | 2.19 ratio |

Sample 6 — technique: DHFR PCA, deep sequencing; medium: yeast; with: (+)-ABA 0.39 µM; relative to: wild-type fitted maximum; direction: higher = stronger binding
Target: ABI1, truncated, D143A, DHFR fusion (Arabidopsis thaliana)
Notes: methotrexate growth selection, single substitutions
Parent: PYL1, truncated, DHFR fusion (Arabidopsis thaliana); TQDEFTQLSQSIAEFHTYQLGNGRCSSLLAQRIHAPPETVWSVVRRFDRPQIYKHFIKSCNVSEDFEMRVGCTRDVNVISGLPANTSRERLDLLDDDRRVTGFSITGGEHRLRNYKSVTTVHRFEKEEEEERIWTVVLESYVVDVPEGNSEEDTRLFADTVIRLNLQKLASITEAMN
| Variant | relative binding score [%] |
| --- | --- |
| F5P | 7.18 |
| N165A | 8.66 |
| R111G | -0.0189 |
| D3L | 32.3 |
| R90Y | -7.16 |
| D3N | 32 |
| S87E | -19.2 |
| H55F | 34.8 |
| V161G | -18.5 |
| N177S | 45.3 |
| R74I | -9.18 |
| T39M | 46.1 |

Sample 7 — technique: aptamer microarray, sandwich; molecule type: DNA with 2'F-ANA; medium: in vitro; tested at: 200 nM; with: Cy3 exosite-II aptamer, 400 nM; direction: higher = stronger binding; sequence: GGTTGGTGTGGTTGG
Target: Prothrombin, mature alpha-thrombin (F2, Homo sapiens, UniProt P00734)
Notes: whole 15-mer aptamer, many near background
| Modification | mean fluorescence intensity |
| --- | --- |
| 2'F-ANA at 1 2 12 14 15 | 70.1 a.u. |
| 2'F-ANA at 3 6 7 8 12 14 | 644 a.u. |
| 2'F-ANA at 1 4 6 7 9 12 15 | 213 a.u. |
| 2'F-ANA at 4 5 6 7 9 11 12 15 | 103 a.u. |
| 2'F-ANA at 1 7 9 10 11 12 15 | 64.3 a.u. |
| 2'F-ANA at 1 2 3 5 7 11 12 14 | 49.7 a.u. |
| 2'F-ANA at 2 3 5 9 10 12 13 14 15 | 48.2 a.u. |
| 2'F-ANA at 1 2 4 6 7 8 10 13 15 | 82.1 a.u. |
| 2'F-ANA at 3 6 8 12 13 15 | 1000 a.u. |
| 2'F-ANA at 1 2 3 4 7 8 10 14 15 | 52.2 a.u. |
| 2'F-ANA at 1 2 3 5 6 8 13 15 | 54.5 a.u. |
| 2'F-ANA at 1 2 5 8 9 10 12 13 14 | 56.7 a.u. |
| 2'F-ANA at 2 3 6 7 9 10 11 12 15 | 313 a.u. |

For quick reference, copied from above (sample 4):
| Sequence | fluorescence intensity [a.u.] |
| --- | --- |
| TGTTTGAGTGGCCAAGACGTGTTGAACTTCAGAAGT | 78.6 |
| CCGTCTTAGCACCCGCACACGCAGACGCAGCGCTCA | 65.8 |
| GACACATCTCTGAGCAGCATGACAGGGTTGTCCCAA | 83.2 |
| CATAATAACAGTTGCGTTGTGACGCTATTGTTAACA | 75 |
| CGTCCTAGTGATTGTCACATTACTTCCATGAGGAAG | 123 |
| CGTCTCCCGCAAAGCCACGCGCCAGCTGACTGGCTC | 69.7 |
| GAGATACAACACCATCACGTTTAAAAGCCTTGTTGG | 218 |
| AGGCCTATCTTCTCACGCCTGAGGAACCTGCCAAGA | 62.4 |
